Published values from different studies.
± marks the error that the study gave.
Target: Metallo-beta-lactamase VIM-2 (VIM-2, Escherichia coli, UniProt Q5U7L7)
Mode: inhibitor

SMILES	read-out	technique	pH	setting	IC50 [µM]
O=C(O)CNCP(=O)(O)O	enzyme activity	fluorescence			41
O=C(CCS)Nc1ccccc1-c1nn[nH]n1	enzyme activity	fluorescence		with preincubation	0.0282
O=C(O)CC(O)(CC(=O)O)C(=O)O	enzyme activity	fluorescence			102
O=C(O)c1cccc(CP(=O)(O)O)n1	enzyme activity	absorbance		with preincubation	1.29
COCc1c(C(=O)O)nnn1Cc1c(F)cccc1Cl	enzyme activity	fluorescence		with preincubation	38.1
Cn1nnc(-c2cccc(NC(=O)CS)c2)n1	enzyme activity	fluorescence		with preincubation	1.38
O=C(O)c1nc[nH]c1C(=O)Nc1ccccc1	enzyme activity	fluorescence		with preincubation	169
O=C(O)CNC(CO)(CO)CO	enzyme activity	fluorescence			> 200
CN(C)c1ccc2c(c1)C(=O)N(C(CS)C(N)=O)C2=O (stereo not drawn)	enzyme activity		pH 7		1.7
O=C(CCS)Nc1cccc(-c2nn[nH]n2)c1	enzyme activity	fluorescence		with preincubation	0.0214
O=C(O)CN(CCO)CCO	enzyme activity	fluorescence			> 200
CC(C)Cc1cc(C(=O)O)nc2[nH][nH]c(=O)c12	enzyme activity	fluorescence		with preincubation	540
N[C@@H](CN[C@@H](CN[C@@H](CC(=O)O)C(=O)O)C(=O)O)C(=O)O	enzyme activity			Zn2+-depleted enzyme	3000
Cn1nnnc1-c1cccc(NC(=O)CCS)c1	enzyme activity	fluorescence		with preincubation	0.48
NC(CNC(CNC(CC(=O)O)C(=O)O)C(=O)O)C(=O)O (stereo not drawn)					9.6 ± 2.4

Some of these lines once more:
SMILES	read-out	technique	pH	setting	IC50 [µM]
Cn1nnnc1-c1cccc(NC(=O)CCS)c1	enzyme activity	fluorescence		with preincubation	0.48
NC(CNC(CNC(CC(=O)O)C(=O)O)C(=O)O)C(=O)O (stereo not drawn)					9.6 ± 2.4
